Measurements pooled from the literature.
Each numbered part is a random draw from the data of one study; scales do not carry over between parts. Several values in a cell are separate wells, animals, samples, runs or records.
UniProt Q9BVS4, sequence (whole entry, looked up): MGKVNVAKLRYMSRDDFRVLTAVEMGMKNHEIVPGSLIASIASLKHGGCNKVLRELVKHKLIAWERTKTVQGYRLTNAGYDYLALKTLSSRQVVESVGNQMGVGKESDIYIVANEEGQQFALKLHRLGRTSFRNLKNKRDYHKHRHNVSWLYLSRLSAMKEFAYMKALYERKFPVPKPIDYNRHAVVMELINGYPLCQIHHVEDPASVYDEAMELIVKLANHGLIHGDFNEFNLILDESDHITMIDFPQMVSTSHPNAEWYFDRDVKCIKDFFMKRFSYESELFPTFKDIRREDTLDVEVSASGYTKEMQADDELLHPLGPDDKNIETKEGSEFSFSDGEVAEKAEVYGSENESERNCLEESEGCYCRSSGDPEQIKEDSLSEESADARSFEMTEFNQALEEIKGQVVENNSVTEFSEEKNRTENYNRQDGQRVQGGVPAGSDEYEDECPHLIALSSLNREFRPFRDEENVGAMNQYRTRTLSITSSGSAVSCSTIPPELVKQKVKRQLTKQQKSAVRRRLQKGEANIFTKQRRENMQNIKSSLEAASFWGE
UniProt Q9UQB9, sequence (whole entry, looked up): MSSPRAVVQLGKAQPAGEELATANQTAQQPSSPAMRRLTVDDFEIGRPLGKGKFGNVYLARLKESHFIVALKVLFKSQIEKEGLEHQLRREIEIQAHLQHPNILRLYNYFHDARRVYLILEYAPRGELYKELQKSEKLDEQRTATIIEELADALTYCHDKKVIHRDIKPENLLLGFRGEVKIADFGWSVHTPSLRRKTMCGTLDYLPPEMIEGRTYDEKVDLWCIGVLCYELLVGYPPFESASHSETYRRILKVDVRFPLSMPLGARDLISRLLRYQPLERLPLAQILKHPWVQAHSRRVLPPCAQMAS
UniProt Q13237, sequence (whole entry, looked up): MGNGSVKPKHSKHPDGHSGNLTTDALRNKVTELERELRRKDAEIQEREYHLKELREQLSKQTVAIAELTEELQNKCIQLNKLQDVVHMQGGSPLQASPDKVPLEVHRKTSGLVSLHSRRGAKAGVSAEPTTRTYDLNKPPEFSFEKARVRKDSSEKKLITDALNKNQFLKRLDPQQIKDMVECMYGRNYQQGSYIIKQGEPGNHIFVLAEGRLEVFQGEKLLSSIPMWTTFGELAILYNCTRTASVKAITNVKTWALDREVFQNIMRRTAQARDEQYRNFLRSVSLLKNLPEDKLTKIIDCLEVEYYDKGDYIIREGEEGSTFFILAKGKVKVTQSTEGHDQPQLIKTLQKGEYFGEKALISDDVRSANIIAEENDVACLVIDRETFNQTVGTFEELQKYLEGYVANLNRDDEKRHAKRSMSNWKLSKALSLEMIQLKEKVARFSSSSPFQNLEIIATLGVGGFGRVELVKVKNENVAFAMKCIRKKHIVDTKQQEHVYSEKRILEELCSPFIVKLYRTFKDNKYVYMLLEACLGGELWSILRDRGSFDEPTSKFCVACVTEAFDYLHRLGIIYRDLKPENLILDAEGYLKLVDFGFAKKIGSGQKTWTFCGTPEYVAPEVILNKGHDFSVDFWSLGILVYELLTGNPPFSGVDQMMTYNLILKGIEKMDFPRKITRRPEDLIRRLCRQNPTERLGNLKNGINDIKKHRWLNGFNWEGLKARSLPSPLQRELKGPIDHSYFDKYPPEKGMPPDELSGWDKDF
UniProt Q13705, sequence (whole entry, looked up): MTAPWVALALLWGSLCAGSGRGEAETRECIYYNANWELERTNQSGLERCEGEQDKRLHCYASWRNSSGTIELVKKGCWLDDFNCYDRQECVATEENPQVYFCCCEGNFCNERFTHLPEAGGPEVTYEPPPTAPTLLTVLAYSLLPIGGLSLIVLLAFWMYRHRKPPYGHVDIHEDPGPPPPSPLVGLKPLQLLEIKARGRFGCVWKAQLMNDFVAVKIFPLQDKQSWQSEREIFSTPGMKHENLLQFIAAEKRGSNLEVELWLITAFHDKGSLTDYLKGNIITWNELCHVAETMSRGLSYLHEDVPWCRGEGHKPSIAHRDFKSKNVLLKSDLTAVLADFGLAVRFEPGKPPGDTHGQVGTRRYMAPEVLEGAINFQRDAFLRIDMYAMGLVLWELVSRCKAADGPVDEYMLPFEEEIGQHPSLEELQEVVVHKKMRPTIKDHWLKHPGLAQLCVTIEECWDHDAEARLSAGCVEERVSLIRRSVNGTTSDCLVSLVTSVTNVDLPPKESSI
UniProt Q9Y2H1, sequence (whole entry, looked up): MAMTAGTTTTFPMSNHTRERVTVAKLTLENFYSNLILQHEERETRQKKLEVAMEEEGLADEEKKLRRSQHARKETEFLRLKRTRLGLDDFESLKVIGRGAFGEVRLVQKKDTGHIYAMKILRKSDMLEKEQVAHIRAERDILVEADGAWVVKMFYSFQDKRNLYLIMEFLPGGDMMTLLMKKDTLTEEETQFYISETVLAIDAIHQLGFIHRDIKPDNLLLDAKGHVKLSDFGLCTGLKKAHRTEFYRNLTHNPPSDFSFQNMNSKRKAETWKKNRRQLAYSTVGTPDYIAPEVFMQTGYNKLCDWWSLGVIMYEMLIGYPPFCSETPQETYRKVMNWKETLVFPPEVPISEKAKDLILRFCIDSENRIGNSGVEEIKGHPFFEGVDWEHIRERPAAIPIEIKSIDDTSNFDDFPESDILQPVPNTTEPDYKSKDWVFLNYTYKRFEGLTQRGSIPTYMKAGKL

Series 1
Target: Ribosomal protein S6 kinase beta-2 (RPS6KB2, Homo sapiens, UniProt Q9UBS0)
UniProt Q9UBS0, sequence (whole entry, looked up): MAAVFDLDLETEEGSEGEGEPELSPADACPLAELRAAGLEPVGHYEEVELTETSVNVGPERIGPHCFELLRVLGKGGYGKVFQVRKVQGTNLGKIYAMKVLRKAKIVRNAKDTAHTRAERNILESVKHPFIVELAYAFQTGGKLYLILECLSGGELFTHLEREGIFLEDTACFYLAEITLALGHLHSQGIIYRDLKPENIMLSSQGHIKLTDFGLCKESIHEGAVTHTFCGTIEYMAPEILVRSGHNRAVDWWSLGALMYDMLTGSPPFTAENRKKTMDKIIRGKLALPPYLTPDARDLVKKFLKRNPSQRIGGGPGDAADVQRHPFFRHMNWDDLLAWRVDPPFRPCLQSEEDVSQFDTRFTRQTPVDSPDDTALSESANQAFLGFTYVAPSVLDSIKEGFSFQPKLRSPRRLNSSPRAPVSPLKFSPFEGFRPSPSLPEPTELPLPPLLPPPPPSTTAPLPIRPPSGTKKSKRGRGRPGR
Read-out: enzyme activity
Mode: inhibitor
Tested at: 0.5 µM
Baseline: control
SMILES	remaining activity [%]
COc1ccc(CNC(=O)Nc2ncc([N+](=O)[O-])s2)cc1	93.6
O=c1c2ccccc2[nH]c(=S)n1CCN1CCC(=C(c2ccc(F)cc2)c2ccc(F)cc2)CC1	102
COc1cc2ncnc(Nc3ccc(F)c(Cl)c3)c2cc1OCCCN1CCOCC1	101
Cn1sc(=O)n(Cc2ccccc2)c1=O	101
OCC(O)CCON=C1C(c2c(O)[nH]c3ccccc23)=Nc2ccccc21 (centres unmarked)	106
CO[C@H]1C[C@@H]2CC[C@@H](C)[C@@](O)(O2)C(=O)C(=O)N2CCCC[C@H]2C(=O)O[C@H]([C@H](C)C[C@@H]2CC[C@@H](O)[C@H](OC)C2)CC(=O)[C@H](C)/C=C(\C)[C@@H](O)[C@@H](OC)C(=O)[C@H](C)C[C@H](C)/C=C/C=C/C=C/1C	95.4
NCCNc1ncc(C(N)=O)c(Nc2cccc(C(F)(F)F)c2)n1	86.7
CC(C)[C@H](CO)Nc1nc(Nc2cc(N)cc(Cl)c2)c2ncn(C(C)C)c2n1	98.2
O=C(Nc1cccc(Nc2cc(Nc3cccc(C(F)(F)F)c3)ncn2)c1)C1CC1	103
Nc1ccc2ncnc(NCCc3ccc(Oc4ccccc4)cc3)c2c1	99.2
Cc1nc(-c2ccccc2)c(-c2ccncc2)o1	96
Cc1ccc(NC(=O)c2ccc(CN3CCN(C)CC3)cc2)cc1Nc1nc(-c2cccnc2)cs1	101
O=C1NC(=O)C(c2cn(CCCn3ccnc3)c3ccccc23)=C1Nc1ccccc1	86.1
CCOC(=O)c1c(C)[nH]c(/C=C2\C(=O)Nc3ccccc32)c1C	103
COc1cc2nccc(Oc3ccc(NC(=S)NC(=O)c4ccccc4C)cc3)c2cc1OC	97.3
Cc1cccc(-c2[nH]c(C(C)(C)C)nc2-c2ccc3c(c2)OCO3)n1	102

Series 2
Cell line: mouse MPNST tumor cells
Technique: high-content immunofluorescence imaging
Measured: nuclear SOX9
Tested at: 10 µM
Time: 12 h
Setting: mean of 2 replicates
Baseline: DMSO control
Reading: higher = more nuclear SOX9
Structure (SMILES)	nuclear SOX9 intensity
O=C(OCCN1CCOCC1)C1(c2ccccc2)CCCCC1	98.7 % of DMSO
CCCNCC(O)COc1ccccc1C(=O)CCc1ccccc1 (centres unmarked)	154 % of DMSO
CN1CCN(CC/C=C2/c3ccccc3Sc3ccc(S(=O)(=O)N(C)C)cc32)CC1	216 % of DMSO
COc1cc(OC)c(NC(=O)Nc2cc(C)on2)cc1Cl	106 % of DMSO
C=C1C(=O)O[C@@H]2C[C@@]3(C)CCC[C@H](C)C3=C[C@H]12	143 % of DMSO
C=C[C@@]1(C)CC(=O)[C@]2(O)[C@@]3(C)[C@@H](O)CCC(C)(C)[C@@H]3[C@H](O)[C@H](OC(C)=O)[C@@]2(C)O1	88.3 % of DMSO
Cc1ccc(NC(=O)c2cccc(C(C)(C)C#N)c2)cc1Nc1ccc2ncn(C)c(=O)c2c1	42.8 % of DMSO

Series 3
Compound: CCCCN(CCCC)C(=O)CN1C[C@@H](c2cc(OC)c3c(c2)OCO3)[C@H](C(=O)O)[C@H]1CC(C)(C)CCC
Read-out: cell-free assay
Technique: competition with immobilised ligand
Tested at: 1 µM
target	remaining binding
ACVR2B (Homo sapiens, UniProt Q13705)	85.1%
Aurora kinase C (AURKC, Homo sapiens, UniProt Q9UQB9)	100%
STK38L (Homo sapiens, UniProt Q9Y2H1)	92.4%
RIOK2 (Homo sapiens, UniProt Q9BVS4)	83.2%
PRKG2 (Homo sapiens, UniProt Q13237)	100%

Series 4
Read-out: AlphaScreen signal
Technique: AlphaScreen counter screen
Matrix: His6 peptide without bromodomain
Tested at: 50 µM
Setting: assay interference check
SMILES	inhibition [%]
CC(C)CCN1c2nc(Nc3cc(F)c(O)c(F)c3)ncc2N(C)C(=O)C1C (centres unmarked)	46.2
CC(C)(C)c1cc(NC(=O)Nc2ccc(-c3cn4c(n3)sc3cc(OCCN5CCOCC5)ccc34)cc2)no1	61.6
CC(C)(C)OC(=O)N1CCc2nc(Nc3ccc(F)cc3)ncc2C1	8.95
S=C(NCc1ccc2c(c1)OCO2)N1CCN(c2ncnc3c2oc2ccccc23)CC1	29.7
CCOC(=O)CSc1ccc2nnc(-c3ccc(OC)c(OC)c3)n2n1	24.6
O=C(CSc1ccc2nnc(-c3cccc(F)c3)n2n1)N1CCCC1	17.6

Further values, each from its own experiment
Compound	test	test system	conditions	how to read	endpoint	value
CC(=O)N[C@@H](Cc1c[nH]c2ccccc12)C(=O)N[C@@H](CCC(=O)C=[N+]=[N-])C(=O)OC(C)C	UPLC-MS/MS	EL4 tumor, C57BL/6 CES1-/- mice, tumor	subcutaneous, 0.3 mg/kg DON equivalent daily, 5 days	higher = more metabolite	pyridoxamine level	3.28e+06 a.u. and 2.25e+06 a.u. and 5.69e+06 a.u. and 2.48e+06 a.u. and 4.95e+06 a.u. and 3.42e+06 a.u.

A few entries again (series 4):
SMILES	inhibition [%]
CC(C)CCN1c2nc(Nc3cc(F)c(O)c(F)c3)ncc2N(C)C(=O)C1C (centres unmarked)	46.2
CC(C)(C)c1cc(NC(=O)Nc2ccc(-c3cn4c(n3)sc3cc(OCCN5CCOCC5)ccc34)cc2)no1	61.6
CC(C)(C)OC(=O)N1CCc2nc(Nc3ccc(F)cc3)ncc2C1	8.95
S=C(NCc1ccc2c(c1)OCO2)N1CCN(c2ncnc3c2oc2ccccc23)CC1	29.7
CCOC(=O)CSc1ccc2nnc(-c3ccc(OC)c(OC)c3)n2n1	24.6
